Results gathered from unrelated publications.
A part holds a random share of what one study measured.

Set 1 — method: RNA Bind-n-Seq; molecule type: RNA; medium: in vitro; tested at: not given; relative to: input RNA pool; reading: higher = stronger binding
Target: RING finger protein unkempt homolog, zinc fingers 1-6, GST-SBP tag (UNK, Homo sapiens, UniProt Q9C0B0, residues 30-357)
Sequence of UniProt Q9C0B0 (30-357, looked up): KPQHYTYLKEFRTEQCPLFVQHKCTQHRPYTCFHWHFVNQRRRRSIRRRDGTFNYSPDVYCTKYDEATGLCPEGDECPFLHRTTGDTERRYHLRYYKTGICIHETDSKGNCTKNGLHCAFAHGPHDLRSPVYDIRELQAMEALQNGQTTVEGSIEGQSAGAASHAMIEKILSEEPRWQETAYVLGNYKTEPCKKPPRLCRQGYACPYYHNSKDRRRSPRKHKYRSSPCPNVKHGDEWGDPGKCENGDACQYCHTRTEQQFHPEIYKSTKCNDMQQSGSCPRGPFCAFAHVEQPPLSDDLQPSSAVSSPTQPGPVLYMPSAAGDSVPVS
Setting: RNA with constant flanks, human-mouse chimeric sites, ends assumed
Oligonucleotide | bound/input enrichment [ratio]
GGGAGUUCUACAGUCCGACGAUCUCUUUAAAAAAAAAAUUACCUUUUCUGACAGUGCUUUCCCUCCCAUAGAUCCACGUUCACACUAGAAGGCCAAAACUUUUGCACGGAGCUCAAACAUCUGAUGAAGAAAGAUUUCUGAGACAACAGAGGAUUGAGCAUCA | 2.56
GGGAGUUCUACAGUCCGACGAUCCGCUGGCCCAAGCUGAUGGACUCUGAUGGCCUCCAUCUCUCAGGCACGUUUGCCUUCUCUUAGUUAUUGUUUUCGGGAUGUUAUGAAUCUCAGUACUGUGGUUUGAAAGCACCAGCUUUGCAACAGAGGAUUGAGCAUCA | 7.06
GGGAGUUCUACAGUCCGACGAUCUUGAAAACUGAUUCAAGUAAGUUUGAGUAUCACAAUGUUAGCUUUCUAAUUCCAUAAAAGUACUUGGUUUUUACAGUAACCCCACAUACAUCACCCCAGCGCCAUUUAGAUCAGCUUACUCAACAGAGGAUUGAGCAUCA | 1.78
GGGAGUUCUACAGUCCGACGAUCAUGGAGAAGGAUUCUCUGCCCCGCUUUGUGCGCUCUGAAUUUUAUAAGGAGUUAAUCAAGUAGUCAUCUGGUCAGGCUUCCAAAAGUUGCCCUGUGAGUUGAGUUACAUAAUAACCCGCACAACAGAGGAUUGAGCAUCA | 0.143
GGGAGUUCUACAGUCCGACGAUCUAUCCAACUUUCUUGCCACAUUUUGAAUUCCAAGAUGUUAUUCCUCCAGAUGACUUCCUAACGAGUGAUGAAGAGCAAGAUUUGGUUUUAUUUGGAACUAUGAGAGGACAAGUUGUUGGACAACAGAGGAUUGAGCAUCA | 0.186
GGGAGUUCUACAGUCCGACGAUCUGUAGUUCUGAAUACACGGCUUUGUGUGUAGUUCACUUACGGUAUUAAAUUAUUAUUCUGCUUAGCUUAUAAUAAGGAUAAUUGCAUUUAAAGAGGUUACUGAAUGUUACUCUGAAACUUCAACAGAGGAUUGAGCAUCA | 0.855
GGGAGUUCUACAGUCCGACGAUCAACAGAUUGUCUUUAAGCAUUCCAAGCGAGAAUGCUGGGGUGAUCAUUGUUGCCCAUAUAUAGUAAUACUGAGCUUUAAUGCUGUUCAUCCUUGAUGCUUUCCUUCACUCCAGAAUUGUUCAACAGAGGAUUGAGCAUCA | 0.48
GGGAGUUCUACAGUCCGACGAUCAAAGAACCUCUCUCUGAUGAAGAUGAGGAAGACAAUGAUGAUGUUGAACCCAUUUCUGAAUUUCGAUUUGUGCCCAGUGAUAAGUCAGCAUUGGAGGCAAUGUUCACAGCAAUGUGUGAGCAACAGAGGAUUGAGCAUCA | 0.192

Set 2 — method: protein-binding microarray; molecule type: double-stranded DNA, one strand shown; medium: in vitro; tested at: not given; reading: higher = stronger binding
Target: Myc proto-oncogene protein, bHLH-zipper, MAX partner unstated (MYC, Homo sapiens, UniProt P01106, residues 368-449)
Sequence of UniProt P01106 (368-449, looked up): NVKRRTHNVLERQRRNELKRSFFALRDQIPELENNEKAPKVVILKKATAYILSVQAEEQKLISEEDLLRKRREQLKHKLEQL
Setting: k-mer, scored over probes, only values ≥0.25
Oligonucleotide | E-score
CGTGTTGC | 0.36
GTGTGCGA | 0.303
CATGGGAA | 0.26
CCGCGCAC | 0.317
ATTCCACG | 0.367
GCACGTGA | 0.479
CATGTTTC | 0.3
CACGCAGG | 0.34
CCGTCCAC | 0.285
ATAACGTG | 0.364
CCTACACG | 0.335
TCATGTCA | 0.253
GCACGTTA | 0.342
CAACACGC | 0.399
GCGTGTCA | 0.406

Set 3 — method: protein-binding microarray; molecule type: double-stranded DNA, one strand shown; medium: in vitro; tested at: 2540 nM top; setting: 60-bp whole probe; together with: salmon DNA 0.4 mg/ml; relative to: random background probes; reading: higher = stronger binding; shared flanks, not repeated: GCCTAGCAC … GTCTTGATTCGCTTGACGCTGCTG
Target: Interferon regulatory factor 3, full length, phosphomimetic (IRF3, Homo sapiens, UniProt Q14653, residues 1-427, S386D/S396D/S398D/S402D/T404D/S405D)
Target sequence (chain): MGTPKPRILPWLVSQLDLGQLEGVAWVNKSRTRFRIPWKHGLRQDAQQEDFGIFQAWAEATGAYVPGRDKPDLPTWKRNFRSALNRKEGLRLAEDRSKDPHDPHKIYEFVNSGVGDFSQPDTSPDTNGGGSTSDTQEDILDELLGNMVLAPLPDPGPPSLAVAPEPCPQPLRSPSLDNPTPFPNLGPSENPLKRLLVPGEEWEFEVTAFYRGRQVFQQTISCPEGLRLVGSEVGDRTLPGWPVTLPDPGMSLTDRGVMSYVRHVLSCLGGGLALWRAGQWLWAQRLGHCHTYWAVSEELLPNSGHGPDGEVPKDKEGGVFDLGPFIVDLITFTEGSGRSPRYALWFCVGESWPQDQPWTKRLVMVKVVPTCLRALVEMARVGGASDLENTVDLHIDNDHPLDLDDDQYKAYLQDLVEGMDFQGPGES
Oligonucleotide | fitted relative affinity
TTAGATTTCAGTCTCGATTAGTGCTAG | 2.36 z-score
GACGATTTCGAGACTGGAGACGTGCTA | 1.42 z-score
TTAGGTTTCCTTCTCCTTTTGTGCTAG | 10.5 z-score
TCAGGTATCCTTATCCTTTAGTGCTAG | 5.52 z-score
TTTCCTCTGTCATTTTCTCTGTGCTAG | 3.37 z-score
GACGGACCGGGGTATCGGGACGTGCTA | -0.326 z-score
TTAGGTTTCGGGTATCGATTAGTGCTA | 4.54 z-score
CTAATTTTGAGACTCATGGGGTGCTAG | 0.375 z-score
ATGCATGTAAATAATCAGACAGTGCTA | -0.253 z-score
GACGGTATCGGGTATCGGGAGGTGCTA | 1.72 z-score
GACGGTTTCGGTATCTGGACGTGCTAG | 7.65 z-score

Set 4 — method: RNA Bind-n-Seq; molecule type: RNA; medium: in vitro; tested at: 365 nM; relative to: no-protein control; reading: higher = stronger binding
Target: RNA binding protein fox-1 homolog 2, RRM domain, GST-SBP tag (RBFOX2, Homo sapiens, UniProt O43251-10, residues 100-194)
Setting: natural RNA segment, single round, ends assumed
Residues (chain): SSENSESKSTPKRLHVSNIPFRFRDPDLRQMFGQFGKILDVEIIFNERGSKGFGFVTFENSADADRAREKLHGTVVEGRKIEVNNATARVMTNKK
Oligonucleotide | RBNS enrichment (R)
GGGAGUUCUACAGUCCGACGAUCGCCUUUCCCUGCAGGAUGAGUGAAGACGUUUGCCUCUCACAGUGUGUCUUCUACCUGCAUUUUGGCAUCAGAGCCCCCCAGCCCACCCACCACAGGCAAUUACUAGCCCUUGGAAUUCUCGGGUGCCAA | 0.402
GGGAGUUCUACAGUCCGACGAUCUUAGCAUUGUGAGAUGGACUCAGCUCAGGGCGCCCCUAAGGCUCGGAGGCGGCCUUCUGGGUCCCCACCUCUCCUGGUUCCGCUGCUGCUCUCCCUGCUGAUGAUAAAGUUGGAAUUCUCGGGUGCCAA | 0.771
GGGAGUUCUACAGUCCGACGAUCUCAAAGAAAUGAUCUUCAUGAUAAACUUCAAAGGAACAAACUUUAUGUUUUAGCUUCUAAAGACAAAAAUAUAGUGUUUUUAGCUUUUAGUUAAACUUUAUAAUUCUUUGUGGAAUUCUCGGGUGCCAA | 0.467
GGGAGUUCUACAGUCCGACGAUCUAUGAAACGAAUGUGUUUUUGACUGUUAACUGGGUUCGCUUUCCAGAUCUGUCUUUCCCAAAUGAAAGGUUAGUCCCAUAGACCACUGGCUAUUCAGGGAAAUUACUCUCUGGAAUUCUCGGGUGCCAA | 0.421
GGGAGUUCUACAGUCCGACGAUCGCUUUUCUCCAUCUGGGGACAGUCCUACUCCAAGAACACUGCACACCAGCUCCUCACACAGAUCCCACUUACUCUUUUUUUUUUUUUCAGAGACCACAGACCACAGUGAUUGGAAUUCUCGGGUGCCAA | 0.477
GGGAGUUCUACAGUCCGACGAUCAGCCCCUCGGAGGGGAGCAACCCGGUGCCUGCUGCUUCACCACUGCCGGCCUCAGGACCCUCCCUGGAGGGGCUGCCACCUCUGCCCUCAUCUCCAGGGCCUUGACCUCAUGGAAUUCUCGGGUGCCAA | 0.24
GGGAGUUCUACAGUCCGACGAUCGAAAUGCCAUCUUAUUACCUGAGACGACCAGCACUGGGAGUUAGGUACGGUCUGAAGUUAUGUCUAGAUAAGACUUCAGACGUCCUGGGAUUGAAAGAAUGUGUGUGAAGUGGAAUUCUCGGGUGCCAA | 0.694
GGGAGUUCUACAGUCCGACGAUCGUACUGAGCAGUGAUAUUCUUUGUUAAUUUGGACCAUUUUCCUGCAUUGGGUGAUCAUUCACCAGUACAUUCUCAGUUUUUCUUAAUAUAUAGCAUUUAUGGUAAUCAUAUGGAAUUCUCGGGUGCCAA | 0.897

A few entries again (set 2):
Oligonucleotide | E-score
CATGTTTC | 0.3
CGTGTTGC | 0.36
GCGTGTCA | 0.406
CCGCGCAC | 0.317
GCACGTTA | 0.342
ATTCCACG | 0.367
